Experimental data of several laboratories.
Every numbered part comes from another study and shows a few of its results, in no order. Changes are numbered by the printed parent chain.
UniProt Q712K3, sequence (whole entry, looked up): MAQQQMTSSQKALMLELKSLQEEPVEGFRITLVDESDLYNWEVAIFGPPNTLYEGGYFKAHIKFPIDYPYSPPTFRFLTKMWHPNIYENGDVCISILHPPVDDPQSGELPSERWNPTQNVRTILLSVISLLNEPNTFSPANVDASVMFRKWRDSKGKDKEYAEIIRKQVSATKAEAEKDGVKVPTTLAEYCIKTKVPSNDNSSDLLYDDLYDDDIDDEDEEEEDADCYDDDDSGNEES
UniProt Q7Z7E8, sequence (whole entry, looked up): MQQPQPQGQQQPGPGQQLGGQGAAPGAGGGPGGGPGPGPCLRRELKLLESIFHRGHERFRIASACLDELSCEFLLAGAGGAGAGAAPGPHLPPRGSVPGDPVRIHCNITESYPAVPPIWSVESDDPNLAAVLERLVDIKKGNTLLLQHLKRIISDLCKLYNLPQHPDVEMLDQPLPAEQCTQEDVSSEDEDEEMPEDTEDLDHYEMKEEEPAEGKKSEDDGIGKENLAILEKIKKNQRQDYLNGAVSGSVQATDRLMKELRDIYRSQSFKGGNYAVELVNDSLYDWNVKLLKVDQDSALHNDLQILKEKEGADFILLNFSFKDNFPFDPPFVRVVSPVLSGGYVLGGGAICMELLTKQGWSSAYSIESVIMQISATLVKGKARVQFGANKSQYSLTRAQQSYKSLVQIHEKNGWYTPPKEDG
UniProt P61081, sequence (whole entry, looked up): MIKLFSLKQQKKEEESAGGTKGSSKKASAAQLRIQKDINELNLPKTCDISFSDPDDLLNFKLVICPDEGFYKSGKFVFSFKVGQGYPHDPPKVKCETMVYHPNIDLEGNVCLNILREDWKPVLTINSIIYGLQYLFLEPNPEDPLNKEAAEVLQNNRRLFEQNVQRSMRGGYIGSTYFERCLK
UniProt Q16763, sequence (whole entry, looked up): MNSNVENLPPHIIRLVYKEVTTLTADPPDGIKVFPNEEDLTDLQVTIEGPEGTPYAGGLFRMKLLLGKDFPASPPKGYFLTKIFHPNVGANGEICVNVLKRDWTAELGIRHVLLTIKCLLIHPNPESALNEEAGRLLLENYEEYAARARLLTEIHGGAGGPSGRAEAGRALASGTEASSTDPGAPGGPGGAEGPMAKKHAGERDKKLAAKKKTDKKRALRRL
UniProt O00762, sequence (whole entry, looked up): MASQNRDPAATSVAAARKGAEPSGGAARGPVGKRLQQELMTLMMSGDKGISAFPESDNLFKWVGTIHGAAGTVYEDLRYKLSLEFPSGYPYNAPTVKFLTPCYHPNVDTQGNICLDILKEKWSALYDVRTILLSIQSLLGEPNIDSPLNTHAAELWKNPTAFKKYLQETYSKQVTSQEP
UniProt Q9Y385, sequence (whole entry, looked up): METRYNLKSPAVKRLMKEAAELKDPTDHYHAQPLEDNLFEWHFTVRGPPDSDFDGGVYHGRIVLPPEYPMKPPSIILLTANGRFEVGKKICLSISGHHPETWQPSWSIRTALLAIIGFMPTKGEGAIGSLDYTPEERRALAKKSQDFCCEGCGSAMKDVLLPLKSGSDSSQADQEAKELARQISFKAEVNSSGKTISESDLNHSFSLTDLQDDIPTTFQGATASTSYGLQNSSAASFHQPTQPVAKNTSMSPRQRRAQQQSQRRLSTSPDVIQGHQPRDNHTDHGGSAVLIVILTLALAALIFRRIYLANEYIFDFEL
UniProt P62253, sequence (whole entry, looked up): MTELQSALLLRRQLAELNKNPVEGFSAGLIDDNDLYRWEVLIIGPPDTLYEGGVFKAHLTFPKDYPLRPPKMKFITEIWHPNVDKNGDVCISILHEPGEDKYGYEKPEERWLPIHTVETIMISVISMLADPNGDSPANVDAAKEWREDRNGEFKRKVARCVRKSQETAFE
UniProt P68036, sequence (whole entry, looked up): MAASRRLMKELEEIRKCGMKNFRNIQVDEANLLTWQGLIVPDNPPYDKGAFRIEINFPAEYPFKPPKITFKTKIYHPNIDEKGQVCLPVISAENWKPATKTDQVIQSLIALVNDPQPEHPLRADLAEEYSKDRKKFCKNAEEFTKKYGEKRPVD

Sample 1
Target: RNA binding protein fox-1 homolog 2, RRM domain, GST-SBP tag (RBFOX2, Homo sapiens, UniProt O43251-10, residues 100-194)
Method: RNA Bind-n-Seq
Form: RNA
Matrix: in vitro
Concentration: 365 nM
Setting: natural RNA segment, single round, ends assumed
Reference: no-protein control
Reading: higher = stronger binding
Endpoint: RBNS enrichment (R)
Shared flanks, not repeated: GGGAGUUCUACAGUCCGACGAUC … UGGAAUUCUCGGGUGCCAA
Construct (chain): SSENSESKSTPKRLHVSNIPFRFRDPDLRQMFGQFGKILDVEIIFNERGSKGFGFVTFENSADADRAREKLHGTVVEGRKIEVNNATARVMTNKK
Oligonucleotide = CUGCCGCCUUGGUUCCUGCAGUGCCCUGCGGUGCGGACAGGACUGCAUCUGAUAGUACACAGACUGAUGCACGUAGCAUUUCCCAAACUGUUUGGACCUCAGGACCUUUU; value = 0.364
Oligonucleotide = UGUCAACUCGUAUGCUGGGGGCAGGUGGAGUGGGGGAGCGGUGCCCAUCUGCCUCUGAUGUUCAGUCAUUCCUGGUUUUAUCUCUGAACUUCCCUGGCCACCCUCCUCUG; value = 0.859
Oligonucleotide = UCUCUUGGGAAGUCACCUGUGAGAUGUCUUCUCCCUCAUCAUCCUGAGCCUUAUCUAAUCCAGGUAGCUUCCUAGUUAAAGACUUGGUUAUCUGCUUCUUUUUACUUCUC; value = 0.373
Oligonucleotide = UUGCUUUCUUCCUUACUCUGCCCCACACACGUACACUUUCUGUAAAACUUGAAAAUAGAAAGCAAAAACCCUCAACUGUUGUAAAUCAUGCAAUUAAGGUUGAUUACUUA; value = 0.672
Oligonucleotide = UCUCCUCUCCUGGCUCUACCAGUAAGACAAGAUUUAUUUAAUUUUAUUAUUUAAUCUGCACUGAUUUUCCUGUCUUUGGUGGGUACAGUGUGAUAGGACCACUGUCCUGG; value = 0.405
Oligonucleotide = UCAUUUAUGCCCACUUUAAAAUGUAGGGAGUCUGUUUCGGCCCCUUUUCUGGAGUAUAUUUGUACCAUAUUGUAACAAAAUGAUCCUGGCCACAAAAUAAAACACACACU; value = 0.373
Oligonucleotide = GCCAUUCAGUGAGCACUAGGACAGCUGGGACCUCCUGCCAUUCAGUGAGCACUAGGACAGCUGGGGGCUGCGUCAGGCUACUGGCUUCCUGUGUUCUCACCACUGUCCCU; value = 0.142
Oligonucleotide = ACUGAUAAGGGGCCCUAGGGUACAGGGUGCUGCCCAGCAGGUCGCCACCGAGUGUCUUCUCAUUUUAUUUCAGCUCCAUUUUGCCCAUAGAUGGGCAGAGGGGUGAGAUU; value = 0.394

Sample 2
Sequence: B1 (BFAR RING domain)
Method: yeast two-hybrid
Matrix: yeast
Setting: mostly zero background
Reference: not given
Reading: higher = stronger interaction
Endpoint: lacZ reporter activity
B1: BFAR RING domain (UniProt Q9NZS9); chain GPQISVSEFSCHCCYDILVNPTTLNCGHSFCRHCLALWWASSKKTECPECREKWEGFPKVS
target = UBE2J1 UBC core domain (UniProt Q9Y385); value = 0
target = UBE2L3 UBC core domain (UniProt P68036); value = 0
target = UBE2C UBC core domain (UniProt O00762); value = 0
target = UBE2R2 UBC core domain (UniProt Q712K3); value = 0
target = UBE2M UBC core domain (UniProt P61081); value = 0
target = UBE2S UBC core domain (UniProt Q16763); value = 0
target = UBE2Q1 UBC core domain (UniProt Q7Z7E8); value = 0
target = UBE2G1 UBC core domain (UniProt P62253); value = 0

Sample 3
Molecule: HNRNPC (Homo sapiens, UniProt P07910)
Method: cross-linking MS
Setting: hits only
Endpoint: interaction screen
partner = DDX17 (Homo sapiens, UniProt Q92841); value = cross-linked
partner = DDX5 (Homo sapiens, UniProt P17844); value = cross-linked
partner = RBMX (Homo sapiens, UniProt P38159); value = cross-linked
partner = DDX50 (Homo sapiens, UniProt Q9BQ39); value = cross-linked
partner = HNRNPA3 (Homo sapiens, UniProt P51991); value = cross-linked

Mixed results
P1: viral docking peptide; YKVKRRLVFGADD; partner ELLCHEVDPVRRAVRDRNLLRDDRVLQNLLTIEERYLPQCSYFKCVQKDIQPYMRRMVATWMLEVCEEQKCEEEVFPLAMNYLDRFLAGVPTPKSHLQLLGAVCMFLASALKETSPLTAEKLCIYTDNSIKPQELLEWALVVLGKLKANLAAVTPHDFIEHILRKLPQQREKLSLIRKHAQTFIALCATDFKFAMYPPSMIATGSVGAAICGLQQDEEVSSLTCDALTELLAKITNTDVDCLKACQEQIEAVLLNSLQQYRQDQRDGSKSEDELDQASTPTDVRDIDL
Molecule = GMHDGTVGK; target = HLA class I histocompatibility antigen, A alpha chain, allele A*25:01 (Homo sapiens, UniProt P04439); assay = peptide-MHC binding; test system = peptide; setting = concentration not given; endpoint = binding; value = inactive
Molecule = P1 K2F; target = CCND2, cyclin fold, Cln2 fusion (human); assay = yeast growth competition, sequencing; test system = yeast; setting = strong parent motif; scale = reference: not given, higher = stronger binding; endpoint = normalised enrichment score; value = 0.565

A few entries again (mixed results):
Molecule = GMHDGTVGK; target = HLA class I histocompatibility antigen, A alpha chain, allele A*25:01 (Homo sapiens, UniProt P04439); assay = peptide-MHC binding; test system = peptide; setting = concentration not given; endpoint = binding; value = inactive
Molecule = P1 K2F; target = CCND2, cyclin fold, Cln2 fusion (human); assay = yeast growth competition, sequencing; test system = yeast; setting = strong parent motif; scale = reference: not given, higher = stronger binding; endpoint = normalised enrichment score; value = 0.565
